Measured values pooled from the literature.
A part holds a random share of what one study measured. Several values in a cell are separate wells, animals, samples, runs or records.
Chain of UniProt P06241 (whole entry, looked up): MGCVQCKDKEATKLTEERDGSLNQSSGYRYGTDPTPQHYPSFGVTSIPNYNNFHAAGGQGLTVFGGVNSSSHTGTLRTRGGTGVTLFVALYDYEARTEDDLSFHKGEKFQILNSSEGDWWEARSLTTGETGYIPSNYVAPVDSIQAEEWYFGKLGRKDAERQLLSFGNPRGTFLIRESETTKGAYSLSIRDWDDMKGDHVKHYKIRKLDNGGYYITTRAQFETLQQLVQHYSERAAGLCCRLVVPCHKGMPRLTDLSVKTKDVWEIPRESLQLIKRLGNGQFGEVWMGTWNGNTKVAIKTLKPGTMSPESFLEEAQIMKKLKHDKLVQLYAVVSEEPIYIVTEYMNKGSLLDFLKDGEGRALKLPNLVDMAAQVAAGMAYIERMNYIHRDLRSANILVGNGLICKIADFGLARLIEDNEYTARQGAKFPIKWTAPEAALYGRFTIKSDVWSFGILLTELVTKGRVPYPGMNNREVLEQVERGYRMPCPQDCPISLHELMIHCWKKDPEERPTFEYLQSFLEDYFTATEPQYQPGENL
Chain of UniProt P51817 (whole entry, looked up): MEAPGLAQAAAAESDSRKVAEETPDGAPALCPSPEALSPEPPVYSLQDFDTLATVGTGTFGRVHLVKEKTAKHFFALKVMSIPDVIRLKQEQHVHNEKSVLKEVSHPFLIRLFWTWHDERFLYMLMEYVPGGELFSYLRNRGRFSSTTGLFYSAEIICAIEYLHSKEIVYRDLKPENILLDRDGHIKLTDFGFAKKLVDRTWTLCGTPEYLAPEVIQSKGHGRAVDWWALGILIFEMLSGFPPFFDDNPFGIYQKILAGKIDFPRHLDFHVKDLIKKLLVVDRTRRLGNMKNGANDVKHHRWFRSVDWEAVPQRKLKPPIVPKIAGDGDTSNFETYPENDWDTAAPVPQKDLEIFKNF
Chain of UniProt Q59H18 (whole entry, looked up): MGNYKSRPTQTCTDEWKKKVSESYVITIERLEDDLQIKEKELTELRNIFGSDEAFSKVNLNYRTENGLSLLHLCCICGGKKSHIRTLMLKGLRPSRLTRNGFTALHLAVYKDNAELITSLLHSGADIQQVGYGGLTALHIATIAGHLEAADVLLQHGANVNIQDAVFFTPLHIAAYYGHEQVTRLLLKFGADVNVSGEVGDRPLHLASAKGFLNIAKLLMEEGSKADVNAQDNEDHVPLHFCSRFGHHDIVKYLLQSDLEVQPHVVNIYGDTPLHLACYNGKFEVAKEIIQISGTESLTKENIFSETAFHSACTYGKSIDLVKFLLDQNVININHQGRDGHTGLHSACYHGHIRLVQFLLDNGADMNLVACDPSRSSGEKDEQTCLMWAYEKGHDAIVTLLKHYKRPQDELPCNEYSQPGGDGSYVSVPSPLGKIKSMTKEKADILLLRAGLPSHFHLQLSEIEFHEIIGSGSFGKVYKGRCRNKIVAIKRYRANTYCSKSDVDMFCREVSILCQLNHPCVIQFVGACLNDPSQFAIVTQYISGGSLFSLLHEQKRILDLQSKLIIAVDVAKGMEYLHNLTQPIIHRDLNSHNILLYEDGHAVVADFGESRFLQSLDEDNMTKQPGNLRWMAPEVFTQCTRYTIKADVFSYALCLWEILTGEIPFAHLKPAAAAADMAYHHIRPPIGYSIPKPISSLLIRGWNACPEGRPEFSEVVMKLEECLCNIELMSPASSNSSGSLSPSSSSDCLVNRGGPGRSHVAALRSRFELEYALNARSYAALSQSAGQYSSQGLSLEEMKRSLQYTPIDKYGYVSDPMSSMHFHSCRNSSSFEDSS
Chain of UniProt P42679 (whole entry, looked up): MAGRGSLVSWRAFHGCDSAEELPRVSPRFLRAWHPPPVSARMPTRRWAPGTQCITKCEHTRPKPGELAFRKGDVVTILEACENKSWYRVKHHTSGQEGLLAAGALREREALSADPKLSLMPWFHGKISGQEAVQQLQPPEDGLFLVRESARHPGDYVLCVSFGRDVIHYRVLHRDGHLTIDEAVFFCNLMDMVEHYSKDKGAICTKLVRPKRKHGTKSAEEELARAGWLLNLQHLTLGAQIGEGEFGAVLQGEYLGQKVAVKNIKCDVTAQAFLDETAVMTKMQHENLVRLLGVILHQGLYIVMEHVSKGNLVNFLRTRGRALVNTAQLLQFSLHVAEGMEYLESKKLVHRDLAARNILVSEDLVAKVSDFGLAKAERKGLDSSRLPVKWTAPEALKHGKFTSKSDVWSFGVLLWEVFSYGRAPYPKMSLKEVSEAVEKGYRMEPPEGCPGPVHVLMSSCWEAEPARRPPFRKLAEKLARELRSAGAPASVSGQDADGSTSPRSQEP

Series 1
SMILES: COc1ccc(COc2ccc(Cc3cnc(N)nc3N)cc2OC)cc1
Effect on: enzyme activity
Action: inhibitor
Tested at: 0.5 µM
Reference: control
target | remaining activity
Cyclin-dependent kinase 3, with cyclin E (CDK3, Homo sapiens, UniProt Q00526) | 82.9%
PAS domain-containing serine/threonine-protein kinase (PASK, Homo sapiens, UniProt Q96RG2) | 103%
LIM domain kinase 1 (LIMK1, Homo sapiens, UniProt P53667) | 94.5%
Tyrosine-protein kinase Fyn (FYN, Homo sapiens, UniProt P06241) | 102%
Tyrosine-protein kinase Fer (FER, Homo sapiens, UniProt P16591) | 93.4%
Serine/threonine-protein kinase TAO3 (TAOK3, Homo sapiens, UniProt Q9H2K8) | 102%
Tyrosine-protein kinase ITK/TSK (ITK, Homo sapiens, UniProt Q08881) | 98.1%
Serine/threonine-protein kinase 25 (STK25, Homo sapiens, UniProt O00506) | 97%
RAC-alpha serine/threonine-protein kinase (AKT1, Homo sapiens, UniProt P31749) | 97.4%
cAMP-dependent protein kinase catalytic subunit PRKX (PRKX, Homo sapiens, UniProt P51817) | 104%
Serine/threonine-protein kinase N1 (PKN1, Homo sapiens, UniProt Q16512) | 101%
Serine/threonine-protein kinase Nek11 (NEK11, Homo sapiens, UniProt Q8NG66) | 103%
Megakaryocyte-associated tyrosine-protein kinase (MATK, Homo sapiens, UniProt P42679) | 94.8%
ALK tyrosine kinase receptor (ALK, Homo sapiens, UniProt Q9UM73) | 97.4%
Insulin receptor (INSR, Homo sapiens, UniProt P06213) | 97%
Serine/threonine-protein kinase MRCK alpha (CDC42BPA, Homo sapiens, UniProt Q5VT25) | 94.4%
Serine/threonine-protein kinase NLK (NLK, Homo sapiens, UniProt Q9UBE8) | 105%
Tyrosine-protein kinase Fgr (FGR, Homo sapiens, UniProt P09769) | 92.3%
Homeodomain-interacting protein kinase 1 (HIPK1, Homo sapiens, UniProt Q86Z02) | 110%

Series 2
SMILES: C[C@@H](c1cccc(C#N)c1)n1cc(Cl)cc(C(N)=O)c1=N
Tested at: 1 µM
target | effect on | method | remaining binding
Serine/threonine-protein kinase 3 (STK3, Homo sapiens, UniProt Q13188) | cell-free assay | competition with immobilised ligand | 96%
Serine/threonine-protein kinase 4 (STK4, Homo sapiens, UniProt Q13043) | cell-free assay | competition with immobilised ligand | 100%
Dual specificity tyrosine-phosphorylation-regulated kinase 1A (DYRK1A, Homo sapiens, UniProt Q13627) | cell-free assay | competition with immobilised ligand | 75%
Leucine-rich repeat serine/threonine-protein kinase 2 (LRRK2, Homo sapiens, UniProt Q5S007) | cell-free assay | competition with immobilised ligand | 100%
Tyrosine-protein kinase Lyn (LYN, Homo sapiens, UniProt P07948) | cell-free assay | competition with immobilised ligand | 80%
Tyrosine-protein kinase Fyn (FYN, Homo sapiens, UniProt P06241) | cell-free assay | competition with immobilised ligand | 65%
Receptor-type tyrosine-protein kinase FLT3 (FLT3, Homo sapiens, UniProt P36888, F691L/ITD) | cell-free assay | competition with immobilised ligand | 85%
Cyclin-dependent kinase 4, with cyclin D1 (CDK4, Homo sapiens, UniProt P11802) | cell-free assay | competition with immobilised ligand | 96%
Serine/threonine-protein kinase TNNI3K (TNNI3K, Homo sapiens, UniProt Q59H18) | cell-free assay | competition with immobilised ligand | 100%
Epithelial discoidin domain-containing receptor 1 (DDR1, Homo sapiens, UniProt Q08345) | cell-free assay | competition with immobilised ligand | 88%
Ephrin type-B receptor 6 (EPHB6, Homo sapiens, UniProt O15197) | cell-free assay | competition with immobilised ligand | 100%
High affinity nerve growth factor receptor (NTRK1, Homo sapiens, UniProt P04629) | cell-free assay | competition with immobilised ligand | 100%
AP2-associated protein kinase 1 (AAK1, Homo sapiens, UniProt Q2M2I8) | binding |  | 100%

Series 3
Cell line: mouse MPNST tumor cells
Method: high-content immunofluorescence imaging
Measured: nuclear SOX9
Tested at: 10 µM
Time: 12 h
Setting: mean of 2 replicates
Reference: DMSO control
Reading: higher = more nuclear SOX9
Compound | nuclear SOX9 intensity
Nc1ncn(C2OC(CO)C(O)C2O)c(=O)n1 (stereo not shown) | 106 % of DMSO and 131 % of DMSO
COC1CCN(c2cccc(-c3cc(NC(C)=O)nc(-n4nc(C)cc4C)n3)n2)CC1 | 171 % of DMSO
O=C1OCCN1/N=C/c1ccc([N+](=O)[O-])o1 | 101 % of DMSO and 97.2 % of DMSO
N[C@@H](Cn1ccc(=O)n(Cc2ccccc2C(=O)O)c1=O)C(=O)O | 97 % of DMSO
Nc1cc(C(Cl)=C(Cl)Cl)c(S(N)(=O)=O)cc1S(N)(=O)=O | 94.9 % of DMSO
CCCc1cc(-c2nc(-c3ccc(C)cc3)cs2)ccn1 | 138 % of DMSO
CCOC(=O)[C@H](CCc1ccccc1)N[C@@H](C)C(=O)N1Cc2ccccc2C[C@H]1C(=O)O | 102 % of DMSO
O=C(NCC(=O)N1CCCCC1)Nc1ccc2nnsc2c1 | 92.1 % of DMSO
c1ccc(-c2ccc(CNc3nc(-c4ccccn4)nnc3-c3ccccc3)cc2)cc1 | 104 % of DMSO
COCC1=C(C(=O)OC(C)OC(=O)OC(C)C)N2C(=O)[C@@H](NC(=O)/C(=N\OC)c3csc(N)n3)[C@H]2SC1 (stereo partly shown) | 89.9 % of DMSO
CC(=O)[C@H]1CC[C@H]2[C@@H]3C=CC4=CC(=O)CC[C@@]4(C)[C@@H]3CC[C@]12C | 104 % of DMSO
O=c1[nH]c(=O)n([C@H]2C[C@H](O)[C@@H](CO)O2)cc1F | 109 % of DMSO

Series 4
Target: DNA polymerase theta, ATPase domain (POLQ, Homo sapiens, UniProt O75417)
Chain of UniProt O75417 (whole entry, unmodified, looked up): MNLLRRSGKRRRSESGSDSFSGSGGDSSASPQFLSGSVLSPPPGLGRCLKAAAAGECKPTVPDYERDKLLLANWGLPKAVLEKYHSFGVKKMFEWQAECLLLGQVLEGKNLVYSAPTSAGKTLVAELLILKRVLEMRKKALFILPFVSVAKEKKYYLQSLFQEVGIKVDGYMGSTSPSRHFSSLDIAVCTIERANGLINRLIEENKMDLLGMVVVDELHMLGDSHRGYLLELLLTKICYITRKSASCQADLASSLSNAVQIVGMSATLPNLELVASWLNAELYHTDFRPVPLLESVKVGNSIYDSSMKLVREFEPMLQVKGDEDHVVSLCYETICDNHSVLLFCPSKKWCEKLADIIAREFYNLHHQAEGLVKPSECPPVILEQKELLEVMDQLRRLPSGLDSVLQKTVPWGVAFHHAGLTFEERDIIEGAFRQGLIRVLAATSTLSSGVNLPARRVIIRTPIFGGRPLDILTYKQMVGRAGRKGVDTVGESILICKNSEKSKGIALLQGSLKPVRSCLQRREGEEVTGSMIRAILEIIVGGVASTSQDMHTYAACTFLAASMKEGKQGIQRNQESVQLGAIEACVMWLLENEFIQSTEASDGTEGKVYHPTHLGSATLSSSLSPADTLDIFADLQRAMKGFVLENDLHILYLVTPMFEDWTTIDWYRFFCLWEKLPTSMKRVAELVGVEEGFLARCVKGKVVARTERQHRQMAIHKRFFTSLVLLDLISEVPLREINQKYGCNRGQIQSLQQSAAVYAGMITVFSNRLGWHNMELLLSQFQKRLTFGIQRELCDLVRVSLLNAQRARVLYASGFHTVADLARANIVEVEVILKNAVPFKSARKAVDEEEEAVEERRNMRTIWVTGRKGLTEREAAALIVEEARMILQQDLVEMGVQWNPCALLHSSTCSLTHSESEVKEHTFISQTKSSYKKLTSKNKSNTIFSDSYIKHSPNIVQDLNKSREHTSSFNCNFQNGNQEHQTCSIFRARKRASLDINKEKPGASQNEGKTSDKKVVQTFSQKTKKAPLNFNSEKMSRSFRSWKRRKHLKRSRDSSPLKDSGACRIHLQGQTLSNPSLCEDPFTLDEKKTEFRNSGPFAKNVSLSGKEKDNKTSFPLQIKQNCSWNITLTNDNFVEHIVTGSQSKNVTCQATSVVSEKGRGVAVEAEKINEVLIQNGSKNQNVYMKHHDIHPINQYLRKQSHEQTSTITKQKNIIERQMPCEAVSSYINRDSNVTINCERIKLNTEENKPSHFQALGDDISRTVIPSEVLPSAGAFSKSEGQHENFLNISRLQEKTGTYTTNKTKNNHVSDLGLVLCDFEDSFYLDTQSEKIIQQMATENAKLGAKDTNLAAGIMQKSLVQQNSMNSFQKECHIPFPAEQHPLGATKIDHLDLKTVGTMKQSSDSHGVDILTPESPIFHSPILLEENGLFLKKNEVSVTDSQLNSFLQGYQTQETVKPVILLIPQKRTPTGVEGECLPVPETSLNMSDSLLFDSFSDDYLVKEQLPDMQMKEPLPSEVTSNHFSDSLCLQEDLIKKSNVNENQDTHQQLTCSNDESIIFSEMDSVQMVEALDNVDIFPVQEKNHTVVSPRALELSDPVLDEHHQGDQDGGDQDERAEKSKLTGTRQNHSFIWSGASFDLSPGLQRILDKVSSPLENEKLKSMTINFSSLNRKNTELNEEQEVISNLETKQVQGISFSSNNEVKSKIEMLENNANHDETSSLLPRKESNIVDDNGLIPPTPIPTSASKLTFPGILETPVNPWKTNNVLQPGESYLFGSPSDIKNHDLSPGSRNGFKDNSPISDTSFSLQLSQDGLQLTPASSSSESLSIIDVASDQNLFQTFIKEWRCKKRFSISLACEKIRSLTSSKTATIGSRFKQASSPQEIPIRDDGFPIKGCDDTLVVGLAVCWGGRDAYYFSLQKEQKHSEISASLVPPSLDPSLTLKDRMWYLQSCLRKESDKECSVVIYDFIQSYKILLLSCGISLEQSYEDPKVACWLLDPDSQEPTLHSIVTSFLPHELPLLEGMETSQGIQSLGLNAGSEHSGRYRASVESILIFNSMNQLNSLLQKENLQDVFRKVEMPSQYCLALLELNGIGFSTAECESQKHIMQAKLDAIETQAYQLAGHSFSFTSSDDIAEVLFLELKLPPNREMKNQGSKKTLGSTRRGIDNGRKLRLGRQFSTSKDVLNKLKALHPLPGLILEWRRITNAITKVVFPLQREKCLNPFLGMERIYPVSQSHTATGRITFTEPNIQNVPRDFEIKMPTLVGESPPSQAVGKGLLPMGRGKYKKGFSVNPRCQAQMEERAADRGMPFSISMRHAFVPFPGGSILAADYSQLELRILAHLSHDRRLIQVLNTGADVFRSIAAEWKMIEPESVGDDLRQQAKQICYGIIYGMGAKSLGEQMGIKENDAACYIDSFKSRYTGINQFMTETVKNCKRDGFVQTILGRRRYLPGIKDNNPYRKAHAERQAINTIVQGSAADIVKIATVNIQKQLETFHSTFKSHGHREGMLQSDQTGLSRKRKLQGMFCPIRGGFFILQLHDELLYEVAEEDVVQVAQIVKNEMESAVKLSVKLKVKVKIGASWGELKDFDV
Effect on: enzyme activity
Action: inhibitor
Tested at: 77 µM
Reference: untreated
SMILES | remaining activity
O=C(O)C1=CCCNC1 | 111%
CC[C@H]1OC(=O)C[C@@H](O)[C@H](C)[C@@H](O[C@@H]2O[C@H](C)[C@@H](O)[C@H](N(C)C)[C@H]2O)[C@@H](CCN2C[C@H](C)C[C@H](C)C2)C[C@@H](C)C(=O)/C=C/C(C)=C/[C@@H]1CO[C@@H]1O[C@H](C)[C@@H](O)[C@@H](OC)[C@H]1OC | 103%
CS(=O)(=O)N1CCc2c(-c3cnc(N)nc3)nc(N3CCOCC3)nc21 | 102%
CN(c1ncccc1CNc1nc(Nc2ccc3c(c2)CC(=O)N3)ncc1C(F)(F)F)S(C)(=O)=O | 102% and 98.4% and 106% and 103% and 94.4%
O=c1c(O)c(-c2ccc(O)c(O)c2)oc2cc(O)ccc12 | 103%
COCCCOc1cc(C[C@@H](C[C@H](N)[C@@H](O)C[C@H](C(=O)NCC(C)(C)C(N)=O)C(C)C)C(C)C)ccc1OC | 92.6%
c1ccc2c(c1)CCCc1cc(NCCN3CCOCC3)nnc1-2 | 96.2%
COc1cc(-c2ccc(=O)[nH]n2)ccc1OC(F)F | 103%

Excerpt of the above (series 4):
SMILES | remaining activity
CS(=O)(=O)N1CCc2c(-c3cnc(N)nc3)nc(N3CCOCC3)nc21 | 102%
O=C(O)C1=CCCNC1 | 111%
COCCCOc1cc(C[C@@H](C[C@H](N)[C@@H](O)C[C@H](C(=O)NCC(C)(C)C(N)=O)C(C)C)C(C)C)ccc1OC | 92.6%
CN(c1ncccc1CNc1nc(Nc2ccc3c(c2)CC(=O)N3)ncc1C(F)(F)F)S(C)(=O)=O | 102% and 98.4% and 106% and 103% and 94.4%
